# Published values gathered from unrelated publications.
# Every numbered part comes from another study and shows a few of its results, in no order.

# Series 1 — method: universal PBM; molecule type: double-stranded DNA, one strand shown; matrix: in vitro; concentration: not given; direction: higher = stronger binding
# Target: Sal-like protein 4, full length isoform B (SALL4, Homo sapiens, UniProt Q9UJQ4-2, residues 1-616)
# Notes: 8-mer, flanks averaged, mean of replicates
Strand,E-score
AATGATCC,0.108
ACGAACAT,0.206
TATGGGCA,0.0642
AGGGGACC,-0.337
ACTGAGAG,-0.141
CAACGACG,-0.159
AAGAGTTC,-0.106
CTGGCGCA,-0.253
CTTGTTTA,0.0465
CACTCACA,0.00694
GGCGTTTA,0.0617
CGGCAAGC,-0.203
TTGTACAA,0.296
AGATGAGA,-0.0509

# Series 2 — method: RNA Bind-n-Seq; molecule type: RNA; matrix: in vitro; concentration: 365 nM; baseline: no-protein control; direction: higher = stronger binding
# Target: RNA binding protein fox-1 homolog 2, RRM domain, GST-SBP tag (RBFOX2, Homo sapiens, UniProt O43251-10, residues 100-194)
# Notes: natural RNA segment, single round, ends assumed
# All sequences stand within: GGGAGUUCUACAGUCCGACGAUC … UGGAAUUCUCGGGUGCCAA
# Construct (chain): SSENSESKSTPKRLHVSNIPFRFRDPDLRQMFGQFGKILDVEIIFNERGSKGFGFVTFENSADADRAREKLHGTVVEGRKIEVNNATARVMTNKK
Strand,RBNS enrichment (R)
GAGGCUCUGCGUUCUGGGGGCUUUUUCUUCUCCUCCCCCUACCCGGUUUCCCUCCCUGUUUUCCUACCUCUACGGCAAGCCCAAAGUGUCUUCCCGGGAGCCCAGCGCAG,0.761
CUCGUGUAAGACAGGAAGAACACUUUCUCUGUAGUUUCUUUCUUUUCAUUUAUAAUUUACAAAAGUAAAGCAUUUAUUAGUGUCUGAUUUAAGAAUGUAAAGUGAUUCUG,0.598
ACUAAAAGGACAUUUGAAAUCUUUACAUUUUAGAUGUUUUUGUGAAUUAUAAAUAUCUCCUUUUUCCUCGCUUCAUGCUAACUUGUCUCUAGAUAAAAUCUUAUUUCUUC,0.74
AUAGUGUCACCUGUGUAAAUCAAAUCAAAAUAGCCUUCCCUAUUAUUUAUGAACCCAUGGGAGACUUUAAACUCUUGUAGAUAGAUGCUAAAUGCCCAGGCCCACUUAAC,0.369
ACAAAUUAACUUGAAUUUCUAUGUAAGGUGGUGGGGGGGGGAACUCUAAUAAACAUGAACUAGAGGGAACUUCCAGCGUGUCCUUUCUGUGUGCUAAUGUCUAUCUGGUA,0.632
UUUUUCAACCCCCCUUUUUCAUUAAUCUGUUCUUAAAACUUCUUUUUACUGGCUUUCAUACUUAGCAUUCCAGUGAAAUGUUCUUAGACUCACCAGUGGACAAAUAAUAA,0.379
UUUUUUUCUGCCUCGGUUCUUAUCGGCUAGGUUUGAGGUAUUUCACUGAGAACGUGAACUCGGUCUUCCUUCCAGCUGUCGUCAGGAUCUUGGAGGUGUACACUUACUUA,0.443
UGCCCUCUUGAGUGUGGGGAGCCCCUAGUCCUUUAAGGUUGGCUGCUAAGGCCUGUGCUCCAAAGCAACGGGCUGGGGCAGCCUGCAGCUGCCCACCCAACCUGGUCUUC,0.214
AUCACCUGCAACUUAAAUGAACAAGCUUACAUCCCAUUUUGAGUGAAGAUUUUGAGGUUUUUAAUUUAAAGGCUGUGUACAGUUAUACUUUUUUAUACACCUGUUCAUUU,0.458
GGAUGCGGCUUGGGACUCAGACCUCAUCAUAUUGAUGAGUAGAAAGAACGUUCCCCCGCCCUCCUCCGAUCGAAAUGGCACAUUGACACUUGUCACAGCUUCGUGGUGAC,0.255
CUGUGCCUUCCAGCAUCUUGUACAGCAAACCCUGACUUGUCUUUAUACCCCCAAAAUACCGUCUUCAGUAGCGACUGAAUCUGCCACUGUCAAAAUACGUUACUUGCAUU,10.2
UUACCAAUCAUAUUAAUACAAUGAUGCUAUUUGCAAUUCCUGCUCCUAGGGGAGGGGAGAUAAGAAACCCUCACUCUCUACAGGUUUGGGUACAAGUGGCAACCUGCUUC,0.526

# Series 3 — method: RNA Bind-n-Seq; molecule type: RNA; matrix: in vitro; concentration: 200 nM; notes: whole 134-nt RNA, ends assumed; together with: 150 mM LiCl; baseline: input library; direction: higher = stronger binding; all molecules: 7-deaza-guanosine replaces G
# Target: Ras GTPase-activating protein-binding protein 1, full length (G3BP1, Homo sapiens, UniProt Q13283)
# UniProt Q13283, sequence (whole entry, looked up): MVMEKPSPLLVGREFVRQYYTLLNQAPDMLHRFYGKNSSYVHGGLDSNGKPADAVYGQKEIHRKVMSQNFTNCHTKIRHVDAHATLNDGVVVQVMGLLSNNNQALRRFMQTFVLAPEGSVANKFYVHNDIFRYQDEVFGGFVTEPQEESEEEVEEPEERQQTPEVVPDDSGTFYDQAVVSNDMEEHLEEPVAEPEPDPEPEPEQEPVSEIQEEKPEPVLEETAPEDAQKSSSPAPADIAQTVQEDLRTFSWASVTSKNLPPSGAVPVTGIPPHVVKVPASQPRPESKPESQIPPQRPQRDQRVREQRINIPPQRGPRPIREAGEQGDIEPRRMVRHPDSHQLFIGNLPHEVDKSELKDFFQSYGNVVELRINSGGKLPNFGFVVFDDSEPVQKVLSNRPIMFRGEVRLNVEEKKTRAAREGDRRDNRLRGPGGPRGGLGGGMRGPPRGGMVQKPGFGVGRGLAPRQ
# All sequences stand within: GGGAGUUCUACAGUCCGACGAUC … UGGAAUUCUCGGGUGUCAAGG
Strand,log2 enrichment
CUCAAGUCCUGUGCUACACAUCGUAUGUACCGAAUCGGGAGGGAAAGGGUGGGAAAGUAUUAUGUUACGCCGUUCGGAUCUGCACUUCCA,-0.562
GUCCUGUGCUACACAUCGUAUGUACCGAAUCAAACCCCCCCAAAUUUUUAAACCCAAAAAAGUAUUAUGUUACGCCGUUCGGAUCUGCAC,1.18
CACAGACAACACGCACCCACACAGACACAGAGGGAAGGGGUUGGGAUGGGGACAGGGUGCACAGCAGGGCGGGGUAGGACCCCAGACCCU,-1.64
CCUGUGCUACACAUCGUAUGUACCGAAUCGGUUUUUUGGGUUUUUUGGGGUUUUUUGGGGAAAGUAUUAUGUUACGCCGUUCGGAUCUGC,0.0901
AAGUCCUGUGCUACACAUCGUAUGUACCGAAUCGGGCCCCCGGCCCCCGGCCCCCGGAAAGUAUUAUGUUACGCCGUUCGGAUCUGCACU,0.0356
AGUCCUGUGCUACACAUCGUAUGUACCGAAUCGGGUGGGAAAAAGGGUUUUUUUGGGAAAGUAUUAUGUUACGCCGUUCGGAUCUGCACU,-1.09
AAGUCCUGUGCUACACAUCGUAUGUACCGAAUCGGUUUUUUUGGUGGUUUUUUUGGAAAGUAUUAUGUUACGCCGUUCGGAUCUGCACUU,-0.682
ACAAGUGGAGGAGAAGAACUUAGAAGAACUAGAGGAGAAAUCUACUACUCCUCCUCCGGCAGAACCUGUUUCUCUGCCACAAGAACCACC,1.17
AGUCCUGUGCUACACAUCGUAUGUACCGAAUCGGGUGGGAAAAAAAGGGAAAAAGGGAAAGUAUUAUGUUACGCCGUUCGGAUCUGCACU,-0.338
GCAGGAAGUAAAAACAAAUGGAAAUGCUUCGGAUAGUGGCAGGGGUGGGGGUUGCUAAGGCAAGGGUGGGAUGGGAGUGGGUAAAGAGUU,0.153
CCUGUGCUACACAUCGUAUGUACCGAAUCGGGGAAAAAAAGGGGUUUUUUUGGGGUGGGGAAAGUAUUAUGUUACGCCGUUCGGAUCUGC,0.0974

# Series 4 — method: protein binding microarray; molecule type: double-stranded DNA, one strand shown; matrix: in vitro; concentration: not given; baseline: not given; direction: higher = stronger binding
# Target: Histone acetyltransferase KAT6A, winged helix 1, GST fusion (KAT6A, Homo sapiens, UniProt Q92794, residues 1-85)
# Notes: 8-mer, flanks averaged, mean of 2 arrays, mostly near background
# Target sequence (chain): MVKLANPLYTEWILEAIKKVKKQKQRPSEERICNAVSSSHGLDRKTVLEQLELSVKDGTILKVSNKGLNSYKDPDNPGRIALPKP
Strand,E-score
CATGGGGA,-0.135
CAAATCCC,-0.0276
AGTAGGTC,-0.0417
GGTTGGTA,0.117
TGTCAAAA,-0.0987
GGCACGAC,-0.0625
GCACGCAA,0.154
TACTGCGA,-0.0897
AGAAGTAA,-0.179
AAATCACT,-0.234
ATTGCCCG,0.173
GAAAGTTC,-0.0585
GGTCGTAA,-0.0159
CGATGTAG,0.00607
AATCCACT,-0.324
ATCGATTG,-0.0982
AATCAAAC,-0.14
CGAACACG,0.128
CGGAATCA,0.0971
ATCGTAGA,-0.161
TTGTACAA,-0.254
AACCCGAC,0.278
CACAAACG,-0.0249
CGTAAGCC,0.153

# Excerpt of the above (series 4):
Strand,E-score
CATGGGGA,-0.135
ATTGCCCG,0.173
TGTCAAAA,-0.0987
CGGAATCA,0.0971
AGTAGGTC,-0.0417
GGTCGTAA,-0.0159
GGTTGGTA,0.117
AATCAAAC,-0.14
CAAATCCC,-0.0276
AACCCGAC,0.278
